Published values pooled from the literature.
Every numbered part comes from another study and shows a few of its results, in no order. Changes are numbered by the printed parent chain.

Block 1
Target: CCNA1, cyclin fold, Cln2 fusion (human)
Technique: yeast growth competition, sequencing
Sample: yeast
Setting: weak parent motif
Baseline: not given
Reading: higher = stronger binding
Measurement: normalised enrichment score
Starting sequence: CDC6 docking peptide (human); TLKGRRLVFDNQL; partner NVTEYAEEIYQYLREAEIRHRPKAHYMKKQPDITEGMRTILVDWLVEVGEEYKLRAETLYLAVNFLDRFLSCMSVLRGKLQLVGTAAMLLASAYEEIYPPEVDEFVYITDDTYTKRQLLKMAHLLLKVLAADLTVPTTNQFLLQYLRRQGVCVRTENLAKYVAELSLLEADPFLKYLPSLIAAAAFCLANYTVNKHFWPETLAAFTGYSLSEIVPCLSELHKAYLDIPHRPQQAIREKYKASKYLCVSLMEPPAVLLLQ
L7M: 0.347
G4F: 0.0946
L7N: 0.201
V8I: 0.391
T1V: 0.257
N11F: 0.409
F9H: -0.0271

Block 2
Target: Interferon regulatory factor 7, full length, phosphomimetic (IRF7, Homo sapiens, UniProt Q92985, residues 1-503, S471D/S472D/S475D/S476D/S477D/S483D/S484D/S487D)
Technique: protein-binding microarray
Molecule type: double-stranded DNA, one strand shown
Sample: in vitro
Tested at: 2200 nM top
Setting: 60-bp whole probe
Added: salmon DNA 0.4 mg/ml
Baseline: random background probes
Reading: higher = stronger binding
Measurement: fitted relative affinity
Constant ends, left off below: GCCTAGCAC … GTCTTGATTCGCTTGACGCTGCTG
Construct (chain): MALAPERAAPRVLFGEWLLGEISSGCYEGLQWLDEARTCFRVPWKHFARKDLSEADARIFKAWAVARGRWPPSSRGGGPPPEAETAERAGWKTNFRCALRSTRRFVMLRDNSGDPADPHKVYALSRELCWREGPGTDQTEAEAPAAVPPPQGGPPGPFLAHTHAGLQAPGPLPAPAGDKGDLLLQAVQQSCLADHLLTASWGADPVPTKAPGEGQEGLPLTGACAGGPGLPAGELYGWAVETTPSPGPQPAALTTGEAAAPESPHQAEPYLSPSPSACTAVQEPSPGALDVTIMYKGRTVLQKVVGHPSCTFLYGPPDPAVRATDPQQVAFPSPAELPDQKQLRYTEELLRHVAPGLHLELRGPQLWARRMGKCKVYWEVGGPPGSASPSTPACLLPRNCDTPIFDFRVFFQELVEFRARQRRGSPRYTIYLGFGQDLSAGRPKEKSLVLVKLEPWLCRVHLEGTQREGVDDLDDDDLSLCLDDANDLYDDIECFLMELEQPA
TTAGGTATCGACTTTCGGGTAGTGCTA: 4.18 z-score
GACGGTCTCGGACTGGGAACGTGCTAG: -0.512 z-score
GACGGTATCGGGACTGGGGGCGTGCTA: 0.0141 z-score
GACGAACTGGGGTTCCGAGACGTGCTA: -0.216 z-score
AATTACATTTCATAGAGTGTGTGCTAG: 0.609 z-score
GACGGTTTCCTTTCCCTGGCGTGCTAG: 4.51 z-score

Block 3
Target: Prothrombin, mature alpha-thrombin (F2, Homo sapiens, UniProt P00734)
Technique: aptamer microarray, sandwich
Molecule type: DNA with 2'F-ANA
Sample: in vitro
Tested at: 200 nM
Setting: whole 15-mer aptamer, many near background
Added: Cy3 exosite-II aptamer, 400 nM
Reading: higher = stronger binding
Measurement: mean fluorescence intensity
Oligonucleotide: GGTTGGTGTGGTTGG
2'F-ANA at 1 3 4 6 8 9 13 15: 138 a.u.
2'F-ANA at 2 4 6 10 12 15: 111 a.u.
2'F-ANA at 1 2 8 12 14: 115 a.u.
2'F-ANA at 4 6 7 10 11: 74.9 a.u.
2'F-ANA at 1 2 4 5 9 10 12: 45.8 a.u.
2'F-ANA at 1 2 3 4 5 8 9 10 14 15: 47.2 a.u.
2'F-ANA at 3 4 6 7 8 9 11 14 15: 245 a.u.

Mixed results
PhoQ, residues 284 288 289 292 302 303 AEGLLW
fold induction (PhoP, residues 12 14 15 18 19 FWNTL (Escherichia coli, UniProt P23836); Sort-seq, item: YFP reporter; E. coli; PhoQ-PhoP variant library, added: 10 µM Mg2+; baseline: high Mg2+ state, higher = stronger signaling): 0.857
